Results pooled from the literature.
Each line is one published result; not all experiments were run side by side. ± marks the error that the study gave.
Cell line: MCF7

Structure (SMILES) | assay | conditions | IC50
O=C(c1ccncc1)N1N=C2/C(=C/c3ccc(Br)cc3)CCCC2C1c1ccc(Br)cc1 (stereo not drawn) | cell growth or viability, MTT | – | 0.0365 µM
CN(C)C(=S)N(C)N=Cc1ccccc1SSc1ccccc1C=NN(C)C(=S)N(C)C | cell growth or viability, MTT | 72 h | 0.12 µM
CSc1nc(Nc2cccc(/C(C)=N/NC(=O)c3ccccc3Cl)c2)c(C#N)c(-c2ccccc2)n1 | cell growth or viability, MTT | 48 h | 9.77 µM
CC/C(=C(\c1ccccc1)c1ccc(OCCN(C)CCCCCC(=O)NCCc2c[nH]c3ccc(OC)cc23)cc1)c1ccccc1 | cell survival, MTT | day 9, dosed days 2, 4, 7 | 4.6 µM
O=C(NCc1ccccc1)/C(=C/c1cn(-c2ccccc2)nc1-c1ccccc1)NC(=O)c1ccc(Cl)cc1Cl | cell growth or viability, MTT | 24 h | 179 µM
[Cl][Au+][Cl].[O-][Cl+3]([O-])([O-])[O-].c1ccc(P(=NCc2ccccn2)(c2ccccc2)c2ccccc2)cc1 | cell growth or viability, MTT | 74 h | 30 µM
C[C@]12CC/C(=N/O)C=C1CCC1C2CC[C@]2(C)/C(=C/c3ccccn3)CCC12 (stereo partly drawn) | cell growth or viability, MTT | 72 h | 44.9 µM
CC(C)CCc1c(O)cc2oc3cc(O)c(O)c(CCC(C)C)c3c(=O)c2c1O | cell growth or viability | 48 h | 12.3 µM
CCCCCCCCCCCCCCCCn1c(-c2cccnc2)nc(-c2ccc(C)cc2)c1-c1ccc(C)cc1 | cell growth or viability, SRB | 48 h | > 100 µM
O=C(C[c-]1cccc1)Oc1ccc(-n2cccc2)cc1.[Fe+2].c1cc[cH-]c1 | cell growth or viability, MTT | – | 103 µM
O=C(CCc1nc2cc(Cl)ccc2[nH]c1=O)Nc1ccc(Cl)cc1 | cell growth or viability, MTT | – | 54.7 µM
CC(=O)[O-].O.O.O.O.[Mn+2].[O-]c1ccc(Br)cc1C=NCCN1CCOCC1 | cell viability, MTT | 72 h | 26.1 µg/mL
COc1cc(/C=C/C(=O)CC(C)=O)ccc1O | cell growth or viability, MTT | 48 h | 35 µM
CC(=O)OC[C@H]1O[C@@H](Sc2nc3c4cnn(C(=O)CNc5ccc(C)cc5)c4ncn3n2)[C@H](OC(C)=O)[C@@H](OC(C)=O)[C@H]1OC(C)=O | cell growth or viability, MTT | 48 h | 0.046 µM
Cc1ccccc1[N]1c2ncccc2N=Cc2cc(Br)ccc2[O][Pd]1[CH2]C#N | cell growth or viability, MTT | 48 h | 26.9 µM
Cc1ccc(-c2nc(-c3cccnc3)[nH]c2-c2ccc(C)cc2)cc1 | cell growth or viability, SRB | 24 h | > 100 µM
CCCC(CCC)C(=O)[O][Pt]([Cl])([Cl])[O]C(=O)C(CCC)CCC.N.N | cytotoxicity | 72 h | 0.91 ± 0.3 µM
CC(C)(C)c1cc2c(O)c(c1)Cc1cc(C(C)(C)C)cc(c1OCC(=O)NCc1ccncc1)Cc1cc(C(C)(C)C)cc(c1O)Cc1cc(C(C)(C)C)cc(c1OCC(=O)NCc1ccncc1)COC2 | cell growth or viability, MTT | 72 h | 1.2 µM
CC1=CC(C(F)(F)F)=[O+][Pt-2]([NH3+])([NH3+])[O]1.CC1=CC(C(F)(F)F)=[O+][Pt-2]([NH3+])([NH3+])[O]1.O=S(=O)([O-])[O-] (stereo not drawn) | cell growth or viability, MTT | – | 15 µM
C=CC(=C)CC[C@]1(C)[C@H](C)C[C@H](O)[C@@]23C(=C[C@H](OC(=O)C(C)C)C[C@@H]12)[C@@H](OC(C)=O)O[C@H]3OC(C)=O | cell growth or viability, SRB | – | 0.68 µM
CCC(C(=O)O)C1CCC(C)C(C(C)C(O)C(C)C(=O)C(CC)C2OC3(C=CC(NCc4cn(CSc5ccccc5)nn4)C4(CCC(C)(C5CCC(O)(CC)C(C)O5)O4)O3)C(C)CC2C)O1 (stereo not drawn) | cell growth or viability, resazurin | 72 h | 0.1 µM
C=CC(OC(C)=O)c1ccccc1 (stereo not drawn) | MTT | 24 h | > 50 µM
COc1ccc(/C(=C(/CCn2cc(CN3C(=O)C4(OCCO4)c4cc(Br)ccc43)nn2)c2ccccc2)c2ccccc2)cc1 | cell growth or viability, MTT | – | > 100 µM
C/C(=N\N=C(SCc1ccccc1)SCc1ccccc1)c1ccc(S(=O)(=O)N2CCC(C)CC2)cc1 | cell growth or viability, MTT | – | 32.1 µM
CCN1C(=O)CS/C1=N/N=C(\C)c1c(O)c2ccccc2oc1=O | cell growth or viability, MTT | 48 h | 24.2 µM
S=c1[nH]c(=S)c2sc3sc4c(=S)[nH]c(=S)[nH]c4c3c2[nH]1 | cell growth or viability, MTT | – | 9.26 µM
CS/C(=N\N=C(/C)c1ccc(S(=O)(=O)N2CCC(C)CC2)cc1)N1CCCCC1 | cell growth or viability, MTT | – | 46.3 µM

Structure (SMILES) | assay | conditions | IC50
Oc1ccc2c(c1)OCc1c-2oc2cc3c(cc12)OCO3 | cell growth or viability, MTT | 72 h | 21.2 µM
C[C@@H]1CC[C@@H]([C@@](O)(CNCc2cccc(F)c2)COCc2ccccc2)[C@H](OCc2ccccc2)C1 | cell growth or viability, MTT | 72 h | 0.74 µM
C=CCc1ccc(OCc2nnc(SCC(=O)Nc3ccc(Cl)cc3Cl)o2)c(OC)c1 | cell growth or viability, MTT | 72 h | 10.7 µM
CC1=NN(c2ccccc2)C(c2ccccc2)C1 (stereo not drawn) | cell growth or viability, LDH | – | 7.5 µM
C/C1=C/C[C@H]2[C@@H]3[C@@H]([C@@]4(C)CO4)CC[C@@]3(C)CC[C@]2(C)C[C@H]2[C@@H](C)CC[C@@H]12 | cell growth or viability, MTT | 72 h | 30 µM
O=C(CSc1nnc(-c2ccccc2)o1)N1CCC(=C2c3ncccc3CCc3cc(Cl)cc(Br)c32)CC1 | cell growth or viability, SRB | – | > 120 µM
O=[C]=[Re-2]1(=[C]=O)(=[C]=O)([O]C(=O)c2ccccn2)[n+]2ccc(-c3ccccc3)c3ccc4c(-c5ccccc5)cc[n+]1c4c32 | cell growth or viability, resazurin | 72 h | 1.51 µM
CCN1CCC2(CC1)C/C(=N\N=C\c1ccc(O)cc1)c1ccccc1O2 | cell growth or viability, MTT | 48 h | 35.6 µM
COc1c(O)cc2oc3cc4c(c(O)c3c(=O)c2c1CCC(C)(C)O)CCC(C)(C)O4 | cell growth or viability | 48 h | > 40 µM
CC(C)c1cccc(C(C)C)c1N1CCN(c2c(C(C)C)cccc2C(C)C)C1=[Se].[Cl][Au] | cell growth or viability, MTT | 72 h | 5.4 µM
C[C@]12CC[C@@H]3c4ccc(O)cc4CC[C@H]3[C@@H]1CC[C@@]2(O)c1cn(CC(=O)c2cccc(F)c2)nn1 | cell growth or viability, resazurin | 72 h | > 52.5 µM
O=C(NCCN1CCOCC1)c1cc2c3ccccc3n3c(=O)ccc(n1)c23 | cell growth or viability, MTT | 72 h | 2.9 µM
C[C@@H]1CC[C@@H]([C@](O)(CNCc2ccc(F)cc2)COCc2ccccc2)[C@H](OCc2ccccc2)C1 | cell growth or viability, MTT | 72 h | 10.4 µM
COc1ccc2cc3[n+](cc2c1OCc1cn(Cc2ccc(Cl)cc2F)nn1)CCc1cc2c(cc1-3)OCO2 | cell growth or viability, MTT | – | 150 µM
O=C(NCCCCCCNc1n[n+]([O-])c2ccccc2[n+]1[O-])C(F)(F)F | cytotoxicity, MTT | 24 h, normoxia | > 107 µM
CCOC(=O)CS/C(Nc1ccccc1)=C(\C#N)C(=O)Nc1nnc(NC(=O)c2ccccc2)s1 | cell growth or viability, MTT | 48 h | 69.7 µM
CSc1ccc(-c2noc(-c3cccs3)c2C(F)(F)F)cc1 | cell growth or viability, MTT | 48 h | 22.4 µM
CC(=O)O[C@@H]1C[C@H]2C(C)(C)[C@H](O)CC[C@]2(C)[C@H]2CC[C@@]3(C)C(=CC[C@H]3[C@@H](C)C[C@@H](O)[C@H](O)C(C)(C)O)[C@@]21C | cell growth or viability, MTT | – | 13.3 µM
COc1ccc(-c2noc(NC(=O)c3ccc(F)c(C(F)(F)F)c3)c2C#N)c(OC)c1 | cell growth or viability, MTT | 72 h | 14 µM
C=C(CO)[C@@H]1CC[C@]2(C)CC[C@]3(C)[C@H](CC[C@@H]4[C@@]5(C)CCC(=O)C(C)(C)C5CC[C@]43C)C12 (stereo partly drawn) | cell growth or viability, SRB | – | 12.2 µM
O=C(NN=Cc1ccc(O)cc1)Nc1cc2c(Nc3ccc(F)c(Cl)c3)ncnc2cc1OC1CCOC1 (stereo not drawn) | cell growth or viability, MTT | 72 h | 0.91 µM
COc1ccc2cc3[n+](cc2c1OCc1cn(Cc2ccccc2C#N)nn1)CCc1cc2c(cc1-3)OCO2 | cell growth or viability, MTT | – | 209 µM
NS(=O)(=O)c1ccc(/N=N/c2ccc(O)c(/C=N/c3cc([N+](=O)[O-])ccc3O)c2)cc1 | cell growth or viability, MTT | 72 h | 8.23 µM
O=C(c1ccc2ccccc2c1)c1cn(-c2ccccc2)nc1C1=Nn2c(CCCCc3nnc4n3N=C(c3nn(-c5ccccc5)cc3C(=O)c3ccc5ccccc5c3)CS4)nnc2SC1 | cell growth or viability, MTT | 48 h | 15.6 µM
CC(C)=CCC1=C([O-])C(=O)c2ccccc2C1=O.CC(C)=CCC1=C([O-])C(=O)c2ccccc2C1=O.Cc1cc2cccnc2c2ncccc12.[Cu+2] | cell viability, MTT | 24 h | 2.6 ± 0.1 µM
CC(C)C[C@@H]1NC(=O)[C@H](Cc2c[nH]c3ccccc23)NC(=O)CNC(=O)[C@@H]2CCCN2C(=O)[C@H]2CCCN2C(=O)[C@H]([C@@H](C)O)NC1=O | cell growth or viability, ATP luminescence | 72 h | > 100 µM
CCCCCCCCCCCCCCCOC(=O)/C=C/c1ccc(OC)cc1 | cell viability, MTT | 48 h, serum-free medium | 2.9 ± 0.4 µg/mL
